Published values pooled from the literature.
Parts stem from different laboratories: compare values within a part only. Changes are numbered by the printed parent chain.

Block 1 — target: CCND1, cyclin fold, Cln2 fusion (human); technique: yeast growth competition, sequencing; matrix: yeast; notes: weak parent motif; baseline: not given; reading: higher = stronger binding
Starting sequence: MASTL docking peptide (human); PMIAKNLMCELDE; partner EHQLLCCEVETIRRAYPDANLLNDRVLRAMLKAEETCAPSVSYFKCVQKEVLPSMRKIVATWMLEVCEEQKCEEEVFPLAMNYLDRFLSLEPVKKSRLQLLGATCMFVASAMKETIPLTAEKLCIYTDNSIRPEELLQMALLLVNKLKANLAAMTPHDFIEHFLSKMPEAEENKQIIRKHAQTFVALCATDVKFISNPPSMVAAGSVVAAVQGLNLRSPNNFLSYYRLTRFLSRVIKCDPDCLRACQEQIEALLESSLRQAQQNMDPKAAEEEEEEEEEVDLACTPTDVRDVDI
Variant | normalised enrichment score
N6P | 0.449
I3N | 0.311
A4M | 0.0896
E10K | 0.169
M2F | 0.318
M8F | 0.255
A4L | 0.202

Block 2 — technique: RNA Bind-n-Seq; molecule type: RNA; matrix: in vitro; tested at: 365 nM; baseline: no-protein control; reading: higher = stronger binding
Target: RNA binding protein fox-1 homolog 2, RRM domain, GST-SBP tag (RBFOX2, Homo sapiens, UniProt O43251-10, residues 100-194)
Notes: natural RNA segment, single round, ends assumed
All sequences stand within: GGGAGUUCUACAGUCCGACGAUC … UGGAAUUCUCGGGUGCCAA
Target sequence (chain): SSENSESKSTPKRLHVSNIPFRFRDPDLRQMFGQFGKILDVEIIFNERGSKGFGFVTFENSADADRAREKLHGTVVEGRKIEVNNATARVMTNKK
Sequence | RBNS enrichment (R)
AUACCCUUGUUUUUUAUAGUUGAGAUGUCAAGAAGUUAAAUUGAGGCUUAAUGAGCAUAGGUAGCUUGUCCAAGGUCUCAUGACCAGUCAAGGGCAAGCUGGAGUUAAUA | 0.442
GCUGUGAGGCAGCGGGGAGGGACCGUGCACCCGUGGCUAUCAGAGCCCCUCCGCUGUCCCACCCUGGGCCUGGGACACGGGCCUGGGGCAGUGUGUGUCUGCUGGUCAUG | 0.293
UAAAGAGACCUCAGUUUAUAGCGUAACAGACUACACAAUGCACUGAUGUUUUCAUAAUGUUUAAGGGACCCACUGCAAGAAGCUUGCUGCCUCCUUUUAAUUGUAUUCAU | 0.76
GUGAGUUUCCAAUGUAUUAUCUUAUAUCAAGUAAGAAAUCAAGUAUAUAUCAGCAGAGGCUUACCAAAGUCAUACCUGCUCUCCUCCACUAUUCUCUUCCAGAGUUUUCU | 0.389
CGCGGCGCCCCCGCCCGCGCAGUGACGUCUCCAGCCCCGCAGCCCGGCCCGGGCGUCCUCCGCCAGCUCCUGUGACCAGCGCGUCUCCCGAUGCUCUCCGCCGUGUUCGU | 0.376
UUCUAUUGGACCCAGAUACCCUUUACCUCUACAGCAUAGACACCAAAUGUCCCAUAGUCCUCUCACACCCUGUGUUCCAGCCUUCAGUGUUUGGACAGAGCACCACUGUC | 0.573
CUGUCAGUCGUGUAUUAUACUAAGGCAAGUGUUGUAAAGAUGAAUUACAAAUAGAUCUAGGAACUGGGUCAUAGUUGGCUGGUGGGACAUUAUAGUUGUAAAGCUCAAGU | 0.325
AGGGCUGAGGGUCUCCAACCGAUGCAUAGAUACAUUGAAAUACUUUAGAUUUCCCACAUGGAUGGUUUGAGACUAGAGAAAUACUUUUCUCUAGUUCGUUGGUUUUUAAC | 2.16
UGAAAACUGAGACUCACAUCCAAGGUUUCAAACCACAAAACCUUGGCAUGACUCUGCCAUGGUGUCACAGGCAUCUUGAUCAUGUCUUGACCAUAGAAUUGCUCUCUAGG | 0.284
UAACCCUGACACAGGCAGCUGCUGACCGGCCGCCUGUGUCCUGUGUCCGUCCAUUCUGGGCCACAGCCAUGAGAUGCCCCUCCUGCUGUGAAGGUAGCUGUGCGCUGGCU | 0.277

Block 3 — target: Sox-I, HMG box (Salpingoeca helianthica); technique: Spec-seq; molecule type: double-stranded DNA, one strand shown; matrix: in vitro; tested at: not given; notes: whole probe, mean of replicates; baseline: not given; reading: lower = stronger binding; all sequences stand within: GAGTCGTCTCGTCAGCAC … CCGTAGAGCACTCAGGTC
Residues (chain): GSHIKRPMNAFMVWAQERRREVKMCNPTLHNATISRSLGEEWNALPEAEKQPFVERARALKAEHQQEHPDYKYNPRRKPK
Sequence | relative binding energy
CATAGTA | -0.257 ln ratio
CATTCGG | 1.22 ln ratio
AGCCGTT | 0.349 ln ratio
GATTGTT | -1.86 ln ratio
GGATGTT | 0.372 ln ratio
ATACGTT | 0.0834 ln ratio
CATCAAT | 0.405 ln ratio
CATGGCC | 0.947 ln ratio

Single results of other studies
Molecule | target | test | test system | setting | scale | endpoint | result
PhoQ, residues 284 288 289 292 302 303 SSLVEF | PhoP, residues 12 14 15 18 19 LQHIR (Escherichia coli, UniProt P23836) | Sort-seq, refers to: YFP reporter | E. coli | PhoQ-PhoP variant library, with: 10 µM Mg2+ | baseline: high Mg2+ state, higher = stronger signaling | fold induction | 1.23
